Assay results of several laboratories.
A part holds a random share of what one study measured.

Series 1
Target: RING finger protein unkempt homolog, zinc fingers 1-6, GST-SBP tag (UNK, Homo sapiens, UniProt Q9C0B0, residues 30-357)
Technique: RNA Bind-n-Seq
Molecule type: RNA
Sample: in vitro
Tested at: not given
Setting: RNA with constant flanks, human-mouse chimeric sites, ends assumed
Reference: input RNA pool
Reading: higher = stronger binding
Quantity: bound/input enrichment
Constant ends, left off below: GGGAGUUCUACAGUCCGACGAUC … CAACAGAGGAUUGAGCAUCA
Construct (chain): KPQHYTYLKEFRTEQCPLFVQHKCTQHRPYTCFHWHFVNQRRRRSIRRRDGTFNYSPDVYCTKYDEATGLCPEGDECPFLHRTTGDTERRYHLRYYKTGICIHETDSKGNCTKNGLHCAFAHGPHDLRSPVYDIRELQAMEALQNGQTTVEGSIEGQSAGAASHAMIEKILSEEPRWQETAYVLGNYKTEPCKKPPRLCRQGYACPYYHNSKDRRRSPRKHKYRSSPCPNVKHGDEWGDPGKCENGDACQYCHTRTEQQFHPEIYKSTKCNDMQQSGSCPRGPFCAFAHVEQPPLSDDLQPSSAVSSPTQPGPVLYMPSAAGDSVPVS
CCUCCCCCGGGCCACCCGCCCGCCCAAGCUCCCCGCCGAGAUCCAGGUUUCUUCUUAUUUCAUAGCAAAUAAGAAAAAUGUUCUACGCACAUUUUGUCCUCAGUAAACGAGGGCCUCUGG: 2.64 ratio
AGUGUGCAGGAAUUCAUGACCUUUACAAGUCAACUGAUUGUGGAGCGCUCGGGGAAAGGCAGCAGAGCUUCUGUCAAAGAACAAGACUAUCUUUGCCAUGUCUACGUCCGGAGCGACAGU: 0.143 ratio
AGAAUCUUGGGACUGUUUUACUUAAUUGGUCAUUGGUAGCUUAACAAACAUGGAGAUAAGAUUAGAAAUCUUGACAUCAACAGGUAUCAAGCAGAAAAAACCAUGGCCACGUGUCUCCUG: 0.111 ratio
GCUCUUGGGAAUGUAAUCAGCGCCUUGGGAGACAAGAGCAAGAGAGCCACCCAUGUCCCUUACAGAGAUUCCAAGCUGACAAGACUCUUGCAGGAUUCCCUUGGGGGUAACAGCCAAACC: 0.0885 ratio
AGAGAAAUGAGAAAGAAUCUUACACAAGAAGAGAUGCAAAGAAUGUCUACUAGAGUCCUUUUGGCGACUCUUUCCAUCCCUAUUACUCCUGAGCGAACGGAUAUUGCUCGACUUUUGGAU: 0.106 ratio
AAAGAGUGGAUAGAAUGUGCACACGGGAUCGGUGGGACCCGGGCGAAAAAGGAGUGCAAGAUAGAGUUCGAUGACUUCGAAGAGUGCUUGCUUCGGUACAAAACGAUGAGGCGAAUGCAU: 0.317 ratio
GUACUGCAGCAGCAGGGAAAACUGCAGGAAGCACUGAUGCAUUAUAAGGAGGCUAUUCGAAUCAGUCCUACCUUUGCUGAUGCCUACUCUAAUAUGGGAAACACUCUAAAGGAGAUGCAG: 0.286 ratio
CACAGAGCAGCACCUACCCCCUCCUCCUUUCCACACCUGCAAACUCUUUUACUUGGGCUGAAUAUUUAGUGUUAAUUCAUCUCAGCUUUGAGGGCUCCUGUGGCAAAAUACCCGGAUAAA: 0.935 ratio

Series 2
Target: Sal-like protein 4, full length isoform A (SALL4, Homo sapiens, UniProt Q9UJQ4, residues 1-1053)
UniProt Q9UJQ4, sequence (whole entry, looked up): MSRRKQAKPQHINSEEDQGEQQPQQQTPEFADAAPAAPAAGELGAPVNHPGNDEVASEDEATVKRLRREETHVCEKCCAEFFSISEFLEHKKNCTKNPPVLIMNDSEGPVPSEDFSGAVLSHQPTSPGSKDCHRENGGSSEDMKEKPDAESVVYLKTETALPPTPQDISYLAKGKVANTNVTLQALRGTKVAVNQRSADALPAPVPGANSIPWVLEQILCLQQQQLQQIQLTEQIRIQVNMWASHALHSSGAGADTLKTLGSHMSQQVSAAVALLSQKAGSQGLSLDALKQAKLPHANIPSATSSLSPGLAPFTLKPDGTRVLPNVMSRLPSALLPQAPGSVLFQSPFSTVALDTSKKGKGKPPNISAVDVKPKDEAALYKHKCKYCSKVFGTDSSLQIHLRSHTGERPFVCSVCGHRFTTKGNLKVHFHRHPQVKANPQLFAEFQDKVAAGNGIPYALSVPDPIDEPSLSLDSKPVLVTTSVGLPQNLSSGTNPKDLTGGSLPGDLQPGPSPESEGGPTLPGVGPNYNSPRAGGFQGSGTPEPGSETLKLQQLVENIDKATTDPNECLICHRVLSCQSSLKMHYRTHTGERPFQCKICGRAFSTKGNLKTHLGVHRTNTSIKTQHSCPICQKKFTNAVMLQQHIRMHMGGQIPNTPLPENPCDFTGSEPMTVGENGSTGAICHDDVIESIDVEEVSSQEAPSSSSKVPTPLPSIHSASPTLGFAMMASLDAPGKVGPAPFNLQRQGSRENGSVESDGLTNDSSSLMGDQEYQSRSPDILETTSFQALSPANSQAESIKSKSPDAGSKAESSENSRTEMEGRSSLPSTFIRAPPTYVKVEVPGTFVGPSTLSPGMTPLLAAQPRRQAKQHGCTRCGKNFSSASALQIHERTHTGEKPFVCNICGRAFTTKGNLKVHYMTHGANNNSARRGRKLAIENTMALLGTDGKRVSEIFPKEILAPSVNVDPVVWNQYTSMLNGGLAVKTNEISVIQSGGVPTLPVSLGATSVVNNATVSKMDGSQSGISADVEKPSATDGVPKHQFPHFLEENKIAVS
Technique: universal PBM
Molecule type: double-stranded DNA, one strand shown
Sample: in vitro
Tested at: 600 nM
Setting: 8-mer, flanks averaged, mean of replicates
Reading: higher = stronger binding
Quantity: E-score
CAGATGGC: -0.157
ACGCATGA: 0.0406
CCTCCTAG: -0.0856
GCGTGAAC: -0.144
CAATTGGC: 0.139
ATGCATGC: 0.0185
CAAAGAAG: 0.0441
GATCTTGA: 0.131
AACATGGA: 0.254
CCCTTAAC: -0.0854
GAAACCGC: -0.129
ACTGTCCA: -0.00285
CCGCGTAA: -0.111
AAGGCTAA: 0.0309
CTATGCAA: 0.0664
AGTTGTCG: -0.0797
CGCCTGAC: -0.183
AGGGGTGC: -0.282

Series 3
Target: Interferon regulatory factor 5, full length, phosphomimetic (IRF5, Homo sapiens, UniProt Q13568-2, residues 1-514, K96S/S451D/S453D/S456D/S462D)
Technique: protein-binding microarray
Molecule type: double-stranded DNA, one strand shown
Sample: in vitro
Tested at: 250 nM
Setting: 60-bp whole probe
With: salmon DNA 0.4 mg/ml
Reference: random background probes
Reading: higher = stronger binding
Quantity: log fluorescence
Constant ends, left off below: GCCTAGCAC … GTCTTGATTCGCTTGACGCTGCTG
TTCGATTCCAGTTTCGATTAGTGCTAG: 9.88 z-score
TTAGATCTCAGTTTGGATTAGTGCTAG: 0.201 z-score
TTCTCTCTGGCCCTCCTGAGGTGCTAG: -0.205 z-score
GACGGTTTCGGGACAGGGGACGTGCTA: 5.07 z-score
GACGGCTTCGGTCTCGGGACGTGCTAG: 0.195 z-score
TTAGGGTTCGGTATCGGTTAGTGCTAG: 4.98 z-score
TTACAGCTATTTTTAGGATGGTGCTAG: 0.419 z-score
TGTTGTCTGTGTTTCCTTGTGTGCTAG: 0.518 z-score
TTAGGTACCGACTATCGGTTAGTGCTA: 6.4 z-score
GACGAGTTCAGACTGGAGACGTGCTAG: -0.378 z-score
TCAGTTTTCATTATTGCACTGTGCTAG: 2.68 z-score
GACGATTTCGGGTCTCGAGACGTGCTA: 3.19 z-score
TCATTTTCGTTTTTATTATTGTGCTAG: 8.11 z-score
TTCGATTTCAGTTTCGATTAGTGCTAG: 10.6 z-score
CTAGGTTCCGGTTTCGGTTAGTGCTAG: 8.61 z-score
TTAGGTCTGGGACTGGGTTAGTGCTAG: -0.461 z-score

Series 4
Target: TAR DNA-binding protein 43, full length, His tag (TARDBP, Homo sapiens, UniProt Q13148, residues 1-414)
Technique: RNA Bind-n-Seq
Molecule type: RNA
Sample: in vitro
Tested at: 20 nM
Setting: 6-mer, flanks averaged, single round
With: 150 mM LiCl
Reference: input library
Reading: higher = stronger binding
Quantity: 6-mer enrichment (R)
AAGAUA: 0.817
ACUUAG: 0.857
UCAGGC: 0.864
AUUUUC: 1.11
GCAGGA: 0.975
UCACGA: 0.786
CCGUUU: 1.02
CAUGGA: 0.915
GAGUUG: 1.17
GCAUGA: 1
UUCAAA: 0.869
GGUUCU: 0.93
UAGAGC: 0.946
CCUGAG: 0.911
UCAAUA: 0.894
CGACGU: 0.883
UCAGUG: 1.02
UUAUCA: 0.918
CGUCCA: 0.873
CGAGUG: 1.19

A few entries again (series 4):
ACUUAG: 0.857
UCAGGC: 0.864
AUUUUC: 1.11
GCAGGA: 0.975
UCACGA: 0.786
CCGUUU: 1.02
